Measurements from different studies.
Each numbered part is a random draw from the data of one study; scales do not carry over between parts. Positions count from the first letter of the parent shown.

Sample 1
Target: Interferon regulatory factor 7, full length, phosphomimetic (IRF7, Homo sapiens, UniProt Q92985, residues 1-503, S101K/S471D/S472D/S475D/S476D/S477D/S483D/S484D/S487D)
Sequence of UniProt Q92985 (whole entry, unmodified, looked up): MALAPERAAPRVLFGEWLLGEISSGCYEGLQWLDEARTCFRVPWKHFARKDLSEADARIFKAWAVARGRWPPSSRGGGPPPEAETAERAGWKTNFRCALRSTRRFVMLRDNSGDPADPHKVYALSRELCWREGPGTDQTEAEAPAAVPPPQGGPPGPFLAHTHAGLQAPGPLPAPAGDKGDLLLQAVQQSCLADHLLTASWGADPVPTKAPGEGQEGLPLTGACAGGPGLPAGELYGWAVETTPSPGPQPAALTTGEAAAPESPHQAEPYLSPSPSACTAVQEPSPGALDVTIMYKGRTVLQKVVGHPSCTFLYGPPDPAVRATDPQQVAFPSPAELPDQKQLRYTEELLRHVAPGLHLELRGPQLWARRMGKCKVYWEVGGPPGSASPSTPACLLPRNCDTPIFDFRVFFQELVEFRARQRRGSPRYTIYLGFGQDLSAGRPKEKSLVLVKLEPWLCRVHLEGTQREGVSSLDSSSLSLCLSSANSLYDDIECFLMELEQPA
Technique: protein-binding microarray
Form: double-stranded DNA, one strand shown
Sample: in vitro
Tested at: 250 nM
Setting: 60-bp whole probe
Together with: salmon DNA 0.4 mg/ml
Reference: random background probes
Reading: higher = stronger binding
Shared flanks, not repeated: GCCTAGCAC … GTCTTGATTCGCTTGACGCTGCTG
Sequence	log fluorescence [z-score]
GACGGTCGCCTTATCCTGACGTGCTAG	-0.38
GACGGTTTCGGTCTCGGGAAGTGCTAG	8.93
TTAGGACTGGACACTGGGCTAGTGCTA	-0.397
GACGGTTTCGGTTCCGGTACGTGCTAG	12.6
TCAACTCCCCAACTCGCACTGTGCTAG	-0.298
TTAGATTTCAGTATCGATTAGTGCTAG	1.45
TGCTATACCACTCTTGCTTTGTGCTAG	0.443
TTAGATCTGGGGTATCGATTAGTGCTA	0.339
TCAGGCTTCTATGTAGTACTGTGCTAG	-0.586
GACGGTTTCATACTGCTGACGTGCTAG	1.85
AAATTCTATTCTCTCAATTTGTGCTAG	1.75
GATGGTTTCCTTCTCCTGACGTGCTAG	2.72
CTAGGTCTCGGTCTCGGTTAGTGCTAG	2.66
TGGCCTGTGCTATTTATAAGGGTGCTA	-0.469
GACGGTATCGGTACCGGGACGTGCTAG	0.481
GACGATATCAGACTGGGGACGTGCTAG	0.0784
TTAGGTATCGGGTATCGGCTAGTGCTA	0.491
TCCTCTTTCACTGCTCCCCACGTGCTA	1.53
GACGATATCAGCCTGGAGACGTGCTAG	-0.638
GCCTCTAGGTTTTCTGGAGACGTGCTA	-0.0523
GACGGTATCGGGCTGGGGACGTGCTAG	-0.199
GACGACCTGAGACTGGAGACGTGCTAG	-0.253
GACGGTATCGACTTTCGCGACGTGCTA	0.983
GTGGAAATCAGTATGTTCCCGTGCTAG	-0.0434
TCAGCTTTCTTTAACTCACTGTGCTAG	0.287

Sample 2
Target: Centromere-binding protein 1, full length, N-terminal tag (CBF1, Saccharomyces cerevisiae, UniProt P17106, residues 1-351)
Sequence of UniProt P17106 (whole entry, looked up): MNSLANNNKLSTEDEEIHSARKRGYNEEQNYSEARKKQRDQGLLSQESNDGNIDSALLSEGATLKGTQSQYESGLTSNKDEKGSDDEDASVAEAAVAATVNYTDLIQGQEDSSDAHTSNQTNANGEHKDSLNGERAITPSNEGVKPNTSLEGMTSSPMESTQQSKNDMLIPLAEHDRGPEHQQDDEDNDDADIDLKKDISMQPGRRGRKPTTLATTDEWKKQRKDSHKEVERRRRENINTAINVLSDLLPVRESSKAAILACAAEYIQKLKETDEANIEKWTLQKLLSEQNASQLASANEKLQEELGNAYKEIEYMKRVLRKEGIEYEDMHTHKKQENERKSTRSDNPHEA
Technique: protein-binding microarray
Form: double-stranded DNA, one strand shown
Sample: in vitro
Tested at: 0.8 µM
Setting: whole 60-bp probe, no competitor
Reading: higher = stronger binding
Shared flanks, not repeated: … GTCTTGATTCGCTTGACGCTGCTG
Sequence	fluorescence intensity
CTACTTTACCTAAATCATGTGGCCTATCTTCAGTTC	1160 a.u.
GAACCAAAGGAAGACGTGACCATTCTTAACAGTTAG	1160 a.u.
GAAATAACCCTGAGCCACATGTGGTAGATGCCGTAG	561 a.u.
CTAAAAAGACTTAACCATGTGGCAGCCGTTGTCTTC	564 a.u.
CTAAAACAGTCATCAGGTGTAATAGAAGCTAATTTC	723 a.u.
CTAATAACGACATGTCAGGTGGTACTGTAAGTTTTC	1190 a.u.
GAAAGATTATTGCATCATGCAATGGGGTAATGTTAG	529 a.u.
CTACGAATAATATATCACGAAATACGGAGGAATTTC	576 a.u.
CTAGGAGCTTTAAAACATCAGGATAGTGTGCAATTC	537 a.u.
GAATGGTTTACAAATCACCAGTGCAAAAACAGATAG	574 a.u.
CCTAACTACTATATTAGCGTGCTATAGCTTCGTACA	537 a.u.
GAACAATGTGCGAGGGCCCACGTGGCTTAATACTAG	4310 a.u.
CTACTTACCCTCCCACGTGCTAGATTTTTCGATTTC	5740 a.u.
GAAGAAATAATCGATCACCATCGTTGCCTCTTTTAG	530 a.u.
CTAGATTTTTTCGAACCCGTCAGGTGCAGGCTTTTC	1430 a.u.
CTATAGAATATTAGAAACGTGCATGCCTACAATTTC	697 a.u.
CTACCTAAATGACATCACGATGATAAATCCTCCTTC	646 a.u.
GAATATAAGACGGTCCTCCTGATGAGAGGAAGATAG	524 a.u.
TGTACGAAGCTATCGCACGTAATTATAGTAGTTAGG	502 a.u.
GAATGTTGCTTTAGTGATGATGTGAGCTTAGTGTAG	544 a.u.
CTATAATGGAAGTTACAGGTGACATAAAATCTATTC	883 a.u.
GAAGTATATGCATTGTACGTGCGTTTATTCTTATAG	521 a.u.
TGTACGAAGCTATAAAACGTGTATATAGTAGTTAGG	582 a.u.
GAAGTGGAACAAAGCCACGGGCGGCTGTAACAATAG	495 a.u.
GAAGGGTTGTACTATCAGCAGAAAAAAGTAATTTAG	537 a.u.

Sample 3
Target: TAR DNA-binding protein 43, full length, His tag (TARDBP, Homo sapiens, UniProt Q13148, residues 1-414)
Technique: RNA Bind-n-Seq
Form: RNA
Sample: in vitro
Tested at: 20 nM
Setting: 6-mer, flanks averaged, single round
Together with: 150 mM KCl
Reference: input library
Reading: higher = stronger binding
Sequence	6-mer enrichment (R)
CUAGGA	0.821
CCUUCC	0.585
GUCUUU	0.635
UACCCA	0.623
GAAUUG	0.856
CGUUGA	0.703
GGCUUA	0.87
CUGAGU	0.809
CUAUGC	0.632
AGCGCC	0.806
UAUUAC	0.584
GCCUAC	0.698
GCCCUC	0.647
UAGCUG	0.798

Sample 4
Target: CCNA2, cyclin fold, Cln2 fusion (human)
Technique: yeast growth competition, sequencing
Sample: yeast
Setting: strong parent motif
Reference: not given
Reading: higher = stronger binding
Starting sequence: E2F3 docking peptide (human); PPAKRRLELGESG
Substitution	normalised enrichment score
PPAKRRLEAGESG [L9A]	0.713
PPAKRRLELGEAG [S12A]	5.22
PPAKKRLELGESG [R5K]	3.56
PPAKRALELGESG [R6A]	1.27
PAAKRRLELGESG [P2A]	5.1
PPAKARLELGESG [R5A]	0.368
PPAKRRLALGESG [E8A]	3.91

Sample 5
Target: RNA binding protein fox-1 homolog 2, RRM domain, GST-SBP tag (RBFOX2, Homo sapiens, UniProt O43251-10, residues 100-194)
Technique: RNA Bind-n-Seq
Form: RNA
Sample: in vitro
Tested at: 365 nM
Setting: natural RNA segment, single round, ends assumed
Reference: no-protein control
Reading: higher = stronger binding
Shared flanks, not repeated: GGGAGUUCUACAGUCCGACGAUC … UGGAAUUCUCGGGUGCCAA
Construct (chain): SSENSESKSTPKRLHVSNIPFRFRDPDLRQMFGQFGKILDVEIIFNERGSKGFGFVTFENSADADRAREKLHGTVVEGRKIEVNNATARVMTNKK
Sequence	RBNS enrichment (R)
ACAUCUGAAUCCAAGGGAUCCAAGUGGCCCAGCAGAAACGGAAUUCUUGUUAAAAUGACUGAUUCUCGUGCAUGUGAAAGGCUCUGGGGAAUGAAUACCUGUUUGGUCCA	15.5
AUCAUCACCUGCUCCACUCUCAAUAUGGCUUUUAUCAGCAUCUUUUCUCUGUAGCUCCAGGGGAAUCUUUUUCUCUAAAACGUUUAUGCCCUCGCUUUGGCUAGAAACAC	0.585
GCGCAGACAGUUGGGACGAAACUUCAGAGCCCAGGCAGUCCCUGAAUGACCAGGCCAGUGUUGUCACUGAGUGGUCCCCUGCUGGUUGGGAGUGAAGAGAAUCCAGGCUG	0.302
GAAACCAGUUGUUCCCAAUCUGCCGUUACCAUCAACGCACUGUUGCAUAUGCCAGCCACUGCGCUUGGUUCCCAUUUUCUUUGCCAAGGUGUAUUAGCGGACGGCCCUCU	0.634
UUUGAUUCACUUGCUUUGUUUUCUGUUUUUUUUAAUAGCUAUUAUAAAGAGGUACAAUAAGCAGCUAUUCACAGACACCUGGGUGGUUCCUAUACCUGCCCAGGACAUCU	0.35
UGACCAAGCAAAGACAUGCUUGUUACAGGCUAUUUUCUAUAUUUAUUGUGGGAGAGUCACUUUAAAGACUGUGCUAGUUGGAAACAGAGCUGUUGCUGUUGUCAGUCGAG	0.36
UGAGUUUCUGUUGCUGGCUGGCUGACUGGCAUUAUCUAUGCUAAGUUGAAAUCAGGGGUGCCCAGCAGAGCCCAUCAUUCUCACUGUCUUUGAAACAAAGCUGUACGGUU	0.339
AGGCAAUUUUCGAGGUUUUUAUUUGUUCGGUAUUGUUUUUUUACACUGUGGUACAUAUAAGCAACUUUAAUAGGUGAUAAAUGUACAGUAGUUAGAUUUCACCUGCAUAU	0.571
CAAUAAUAGAUUUCCUCUUUUUUGGCAUGCUUUUUAGAUUUUUUUUCAUUUUGUAAAAUCUCAGUUAAUUUUUCUUUAUUGGUAUAUUUGUGUAUGCGAGACAAAUCCUG	18
AUACACAUAAAAUAUAUAUAUGUAUGAUACAUGAAAUAUAUUUAGAAAUGUUCAUAAUUUUAAUGGAUAUCCUUUGGUGUGAAUAAUUGAAUACAGAGUUUUUAAAAUAU	0.772
ACAAACUUCAAGAUUAUUUAAGUGAAGAUAUUUCUUCAGCUCUGGGGAAAAUGCCACAGUGUUCUCCUGAGAGAACAUCCUUGCUUUGAGUCAGGCUGUGGGCAAGUUCC	0.311
CCAGACUGAAUUUCCUCAUAAAGAAAAAAUGGCGUGCCUUGUGUCUGUGUUUCUCUUUUCUCUGAAAGGAUUAAUAGAUCUGAAGCUUUGGGCCACUCAGAGCCUUCCUU	0.372

A few entries again (sample 1):
Sequence	log fluorescence [z-score]
AAATTCTATTCTCTCAATTTGTGCTAG	1.75
GACGATATCAGACTGGGGACGTGCTAG	0.0784
TCAGGCTTCTATGTAGTACTGTGCTAG	-0.586
GACGGTTTCGGTTCCGGTACGTGCTAG	12.6
GATGGTTTCCTTCTCCTGACGTGCTAG	2.72
GTGGAAATCAGTATGTTCCCGTGCTAG	-0.0434
GACGGTTTCATACTGCTGACGTGCTAG	1.85
